Assay results collected from several papers.
Values joined by “and” are separate records of one study, mostly repeats; a detail may differ. ± gives the spread as reported.
Voltage-dependent P/Q-type calcium channel subunit alpha-1A: Voltage-dependent P/Q-type calcium channel subunit alpha-1A (Homo sapiens, UniProt O00555)
UCHL1: Ubiquitin carboxyl-terminal hydrolase isozyme L1 (UCHL1, Homo sapiens, UniProt P09936)
ADRA2C: Alpha-2C adrenergic receptor (ADRA2C, Homo sapiens, UniProt P18825)

SMILES	tested on	assay	system	setting	how to read	quantity	result
O=S(=O)(NCC(O)c1c(F)cccc1Cl)c1cccc(Cl)c1O (stereo not shown)	malate dehydrogenase	enzyme activity, inhibitor		200 µM, pH 7.0, 1% DMSO, aggregation counter-screen		remaining activity	86%
CCCCC[C@H](O)/C=C/[C@H]1[C@H](O)CC(=O)[C@@H]1C/C=C\CCCC(=O)O	Prostaglandin E2 receptor EP1 subtype (PTGER1, Homo sapiens, UniProt P34995, P39S)	IP1 accumulation, agonist	AD293	1 h, EP1 P39S mutant		Emax	122 ± 3.02%
CC(C)COc1ccc(CNC(=O)N(Cc2ccc(F)cc2)C2CCN(C)CC2)cc1	Voltage-dependent P/Q-type calcium channel subunit alpha-1A	ion current, antagonist, automated patch clamp				IC30	561 nM
CC1(C)CC2(C)OC(=O)NC2(C)c2ccccc21 (stereo not shown)	Leucine-rich repeat serine/threonine-protein kinase 2, WD40 domain (LRRK2, Homo sapiens, UniProt Q5S007)	binding, affinity selection mass spectrometry			baseline: other proteins in batch	log fold enrichment	0.0465
C=C1C(=O)O[C@@H]2C[C@@]3(C)CCCC(=C)[C@@H]3C[C@H]12	Thyroid hormone receptor alpha (THRA, Homo sapiens, UniProt P10827)	reporter gene, Gal4 hybrid reporter		10 µM	baseline: vehicle	activation	0.7 fold
Cc1ccc(C(=O)Nc2ccc3ccccc3c2)o1	Otop1 (Mus musculus, UniProt Q80VM9)	proton current, voltage ramp patch-clamp		10 µM, Cs+ bath cation		reversal potential	55.2 mV
O=C(Nc1cccc2c(=O)cc(-c3nnn[nH]3)oc12)c1ccc(OCCCCc2ccccc2)cc1	Volume-regulated anion channel subunit LRRC8C, part LRRC8A IL1 chimera (LRRC8C, Homo sapiens, UniProt Q8TDW0)	ion current, inhibitor, whole-cell patch clamp	HCT116 LRRC8 knockout, transfected	+100 mV, hypotonic swelling, normal ionic strength		Hill coefficient	1.08
CC(C)NC(=O)C(C#N)=Cc1ccc(Cl)c([N+](=O)[O-])c1	UCHL1	covalent, intact protein LC-MS		12.5 µM		labelling	42.1%
Cc1ccc2ccccc2c1NS(=O)(=O)c1cccc(Cl)c1O	malate dehydrogenase	enzyme activity, inhibitor		200 µM, pH 7.0, 1% DMSO, aggregation counter-screen		remaining activity	107%
Cc1nn(C)c(C)c1CN(C(=O)CCl)C1CCCCC1C (stereo not shown)	UCHL1	covalent, intact protein LC-MS		12.5 µM		labelling	7.97%
COc1cc(NC(=O)c2ccccn2)ccc1/N=N/c1ccccc1Cl	Metabotropic glutamate receptor 6 (Homo sapiens, UniProt O15303)	positive allosteric modulator, IP accumulation	HEK293	30 µM, in the dark, together with: low-dose orthosteric agonist		activation	89%
O=C(O)c1ccc(Nc2ncc3c(n2)-c2ccc(Cl)cc2C(c2c(F)cccc2F)=NC3)cc1	MSK2(h)	kinase activity		1 µM		remaining activity	106%
O=C(CCCCCCC(=O)Nc1ccccc1)NO	Histone deacetylase 8 (HDAC8, Homo sapiens, UniProt Q9BY41)	ITC	Tris buffer	concentration not given, pH 7.5		binding stoichiometry	0.9
O=C(NCc1cn(-c2ccccc2)nc1-c1ccccc1)c1cc([N+](=O)[O-])cc([N+](=O)[O-])c1	Trypanosoma cruzi	reporter translation, Renilla luciferase mRNA translation	cell-free extract	40 µM	baseline: DMSO	inhibition	14%
Nc1nc2c(ncn2[C@@H]2O[C@H](COP(=O)(O)O)[C@@H](O)[C@H]2O)c(=O)[nH]1	GUK1 (Homo sapiens, UniProt Q16774, R148A)	enzyme activity, NADH-coupled		2000 µM		reaction rate	1.1 s⁻¹ and 0.71 s⁻¹ and 1.68 s⁻¹
C[C@H](CCC(C)(C)O)[C@H]1CC[C@H]2[C@@H]3CC=C4C[C@@](C)(O)CC[C@]4(C)[C@H]3CC[C@]12C	Glutamate NMDA receptor; GRIN1/GRIN2B (GRIN1/GRIN2B, Homo sapiens, UniProt Q05586+Q13224, L567A)	positive allosteric modulator, two-electrode voltage clamp	Xenopus oocytes expressing GluN2B-L567A	10 µM, 0.02% cremophor, together with: 100 µM glutamate and glycine	baseline: without compound	current response	116 ± 4.2%
COc1ccc(Nc2nc(Cl)nc(Nc3ccc(OC)cc3)n2)cc1	UCHL1	covalent, intact protein LC-MS		12.5 µM		labelling	3.84%
O=C(O)c1ccc([N+](=O)[O-])cc1	BEST1 (Homo sapiens, UniProt O76090)	whole-cell patch clamp	HEK293 transiently expressing channel	concentration not given, membrane potential 40 mV		current density	21.8 pA/pF and 48.1 pA/pF and 21.4 pA/pF and 63 pA/pF and 38.7 pA/pF and 42.6 pA/pF
N[C@@H]1C[C@]1(F)c1ccc(C(F)(F)F)cc1 (relative stereo)	tyramine oxidase (Arthrobacter sp.)	substrate, Lineweaver-Burk plot				kcat	0.11 ± 0.02 s⁻¹
CC12CC3CC(C)(C1)CC(N)(C3)C2	Voltage-dependent P/Q-type calcium channel subunit alpha-1A	ion current, antagonist	HEK293	10 µM		inhibition	26%
COc1cc(-c2cc(C(C)=O)n3ccccc23)cc(OC)c1Cn1ccnc1	Bromodomain-containing protein 4, BD1 (BRD4, Homo sapiens, UniProt O60885)					ΔTm	5.8 °C
CN[C@H]1CC[C@@H](c2ccc(Cl)c(Cl)c2)c2ccccc21	Voltage-dependent P/Q-type calcium channel subunit alpha-1A	ion current, antagonist, automated patch clamp				IC30	955 nM

SMILES	tested on	assay	system	setting	how to read	quantity	result
C=CC(=O)N1CCC(COCC(=O)N2CCN(c3nc(-c4cnc(N)nc4C(F)F)nc(N4CCOC[C@@H]4C)n3)CC2)CC1	Mitogen-activated protein kinase kinase kinase 4 (MAP3K4, Homo sapiens, UniProt Q9Y6R4)	KINOMEscan		1 µM		remaining binding	100%
Cc1cc(Oc2ncccc2CN2CCN(c3ccc(F)c(F)c3)CC2)ccc1-c1c(C)c(=O)[nH]c(=O)n1C	ADRA2C	binding, radioligand binding		together with: [3H]rauwolscine	baseline: Ki alpha2A over Ki alpha2C	selectivity ratio	5
NCCS(=O)(=O)O	Sodium- and chloride-dependent taurine transporter (SLC6A6, Homo sapiens, UniProt P31641, Y138A)	binding, microscale thermophoresis		3.91 µM, room temperature, together with: 50 nM labelled protein	higher = more binding	normalised MST signal	0.0327
Oc1ccccc1-c1n[nH]cc1-c1ccnc2ccccc12	Extracellular signal-regulated kinase 1 (CEK1, Candida albicans, UniProt Q5A1D3)	kinase binding, MIB/MS competition	Candida albicans lysate	1 µM	baseline: DMSO, negative = stronger binding	log2 fold change	0.11
CCCC(=O)NN(CC)c1cc(C)c(C#N)c(Cl)n1	UCHL1	covalent, intact protein LC-MS		12.5 µM		labelling	9.25%
O=C(C1=C(O)C(=O)N(c2ccccc2O)C1c1ccc([N+](=O)[O-])cc1)c1ccccc1 (stereo not shown)	ESR1/YWHAZ, with 14-3-3 zeta (Homo sapiens, UniProt P03372+P63104)	14-3-3ζ/ERα peptide binding, stabiliser, fluorescence polarization				EC1.2	75 µM
CCc1ccc(S(=O)(=O)n2nc(SCc3ccc(Cl)cc3)nc2N)cc1	Lysophospholipase-like protein 1 (LYPLAL1, Homo sapiens, UniProt Q5VWZ2)	enzyme activity, activator, gel-based ABPP	purified protein	concentration not given, together with: FP-rhodamine	baseline: DMSO	probe labeling increase	2.2 fold
CCN1CCN(c2cc(N3CCN(CC)CC3)nc(NCCNc3ccnc4cc(Cl)ccc34)n2)CC1	Hepatocyte nuclear factor 4-alpha (HNF4A, Homo sapiens, UniProt P41235)	reporter gene, Gal4 hybrid reporter		20 µM	baseline: vehicle	activation	1.61 fold
Cc1cc(C(=O)CCl)c(C)n1-c1ccc(Cl)cc1	UCHL1	covalent, intact protein LC-MS		12.5 µM		labelling	22.6%
Nc1ncnc2c1ncn2[C@@H]1O[C@H](COP(=O)(O)CP(=O)(O)OP(=O)(O)O)[C@@H](O)[C@H]1O	P2X purinoceptor 1 (P2RX1, Homo sapiens, UniProt P51575, E282A)	calcium influx		3.16 µM	baseline: ionomycin response	calcium influx	93.1% and 88.6% and 82.5%
CC(=O)N[C@@H](CC(C)C)C(=O)N[C@@H](CC(=O)O)C(=O)N1CCC[C@H]1C(=O)N1CCC[C@H]1C(=O)N[C@@H](CC(C)C)C(=O)N[C@@H](Cc1c[nH]cn1)C(=O)N[C@@H](CO)C(=O)N[C@H](C(=O)N[C@@H](C)C(N)=O)[C@@H](C)OP(=O)(O)O	Serine/threonine-protein kinase PLK1 (PLK1, Homo sapiens, UniProt P53350)	polo-box domain binding, isothermal titration calorimetry		concentration not given, 25 °C		binding enthalpy	-15.4 ± 0.1 kcal/mol
C#CCCC1(CC[C@H](NC(=O)NCCCCCCNC(=O)NCCNC(=O)COc2cccc([C@@H](CCc3ccc(OC)c(OC)c3)OC(=O)[C@@H]3CCCCN3C(=O)C(=O)C(C)(C)CC)c2)C(N)=O)N=N1.O=C(O)C(F)(F)F	Peptidyl-prolyl cis-trans isomerase FKBP1A (FKBP1A, Homo sapiens, UniProt P62942)	photoaffinity labeling, in-gel fluorescence, measured: Alexa Fluor 647 click label		0.016 µM, UV irradiation 365 nm	higher = more labeling	probe labeling fluorescence	586 a.u.
N[C@@H](Cc1c[nH]c2ccccc12)C(=O)O	Phospho-2-dehydro-3-deoxyheptonate aldolase 2, chloroplastic (DHS2, Arabidopsis thaliana, UniProt Q00218)	differential scanning fluorimetry		together with: AAA 1 mM		melting temperature	increased
C#CC(C)(CC)NS(=O)(=O)c1ccc(OCC)c(C)c1 (stereo not shown)	UCHL1	covalent, intact protein LC-MS		12.5 µM		labelling	11.9%
CC(=C/C(=O)O)/C=C/C=C(\C)C1C=C2C(C)(C)CCCC2(C)O1 (stereo not shown)	Rhodopsin (RHO, Homo sapiens, UniProt P08100, E181K)	immunostaining, measured: opsin	COS-7 transfected	50.00 µM, unit not given	baseline: surface over total stained cells	plasma membrane localization	0.98
Cc1ccnc([18F])c1-c1cccc(N2C[C@H](N3CCN(C(=O)c4nccs4)CC3)CC2=O)c1	Monoglyceride lipase (Macaca mulatta, UniProt H9ESL3)	PET Scatchard plot	rhesus monkey, brain OCC	baseline		Bmax	88.3 nmol/g
CC1CC(C(=O)O)N1C(=O)CCCCc1nc2ccccc2s1 (stereo not shown)	malate dehydrogenase	enzyme activity, inhibitor		200 µM, pH 7.0, 1% DMSO, aggregation counter-screen		remaining activity	96%
Cc1cc(Oc2ncccc2CN2CCN(c3cc(Cl)cc(Cl)c3)CC2)ccc1-c1c(C)c(=O)[nH]c(=O)n1C	ADRA2C	binding, radioligand binding		together with: [3H]rauwolscine	baseline: Ki alpha2A over Ki alpha2C	selectivity ratio	3
O=c1nc(SCc2cc(F)cc(C(F)(F)F)c2)nc(SCc2ccc3nc(Cl)ccc3c2)[nH]1	DNA topoisomerase 2-alpha (TOP2A, Homo sapiens, UniProt P11388)	ATPase activity		31.25 µM, together with: ATP 0.05 mM		ATP hydrolysis rate	0.29 µM/min and 0.425 µM/min
Cc1cc(Oc2ncccc2CN2CCN(c3ccc(Cl)cc3)CC2)ccc1-c1c(C)c(=O)[nH]c(=O)n1C	ADRA2C	binding, radioligand binding		together with: [3H]rauwolscine	baseline: Ki alpha2A over Ki alpha2C	selectivity ratio	7
C=CC(=O)N1CCC[C@@H](n2nc(-c3ccc(Oc4ccccc4)cc3)c3c(N)ncnc32)C1	Activated CDC42 kinase 1 (TNK2, Homo sapiens, UniProt Q07912)			1 µM		remaining activity	86.9%

Repeated from above:
SMILES	tested on	assay	system	setting	how to read	quantity	result
Nc1ncnc2c1ncn2[C@@H]1O[C@H](COP(=O)(O)CP(=O)(O)OP(=O)(O)O)[C@@H](O)[C@H]1O	P2X purinoceptor 1 (P2RX1, Homo sapiens, UniProt P51575, E282A)	calcium influx		3.16 µM	baseline: ionomycin response	calcium influx	93.1% and 88.6% and 82.5%
CN[C@H]1CC[C@@H](c2ccc(Cl)c(Cl)c2)c2ccccc21	Voltage-dependent P/Q-type calcium channel subunit alpha-1A	ion current, antagonist, automated patch clamp				IC30	955 nM
COc1cc(-c2cc(C(C)=O)n3ccccc23)cc(OC)c1Cn1ccnc1	Bromodomain-containing protein 4, BD1 (BRD4, Homo sapiens, UniProt O60885)					ΔTm	5.8 °C
O=C(CCCCCCC(=O)Nc1ccccc1)NO	Histone deacetylase 8 (HDAC8, Homo sapiens, UniProt Q9BY41)	ITC	Tris buffer	concentration not given, pH 7.5		binding stoichiometry	0.9
CCN1CCN(c2cc(N3CCN(CC)CC3)nc(NCCNc3ccnc4cc(Cl)ccc34)n2)CC1	Hepatocyte nuclear factor 4-alpha (HNF4A, Homo sapiens, UniProt P41235)	reporter gene, Gal4 hybrid reporter		20 µM	baseline: vehicle	activation	1.61 fold
Cc1ccc2ccccc2c1NS(=O)(=O)c1cccc(Cl)c1O	malate dehydrogenase	enzyme activity, inhibitor		200 µM, pH 7.0, 1% DMSO, aggregation counter-screen		remaining activity	107%
CC12CC3CC(C)(C1)CC(N)(C3)C2	Voltage-dependent P/Q-type calcium channel subunit alpha-1A	ion current, antagonist	HEK293	10 µM		inhibition	26%
